Results from different studies.
A part holds a random share of what one study measured. Positions count from the first letter of the parent shown.

Study 1
Target: CCNB1, cyclin fold, Cln2 fusion (human)
Technique: yeast growth competition, sequencing
Medium: yeast
Notes: strong parent motif
Reference: not given
Direction: higher = stronger binding
Starting sequence: PKN2 docking peptide (human); DSTVTKLDFDLEP
Change	normalised enrichment score
DSTVTKLAFDLEP [D8A]	2.05
DSTVAKLDFDLEP [T5A]	2.96
ASTVTKLDFDLEP [D1A]	2.63
DSTVTKLDADLEP [F9A]	0.0266
DSTVTKLDFDAEP [L11A]	4.44
DSTVTALDFDLEP [K6A]	2.28

Study 2
Target: RING finger protein unkempt homolog, zinc fingers 1-6, SBP tag (UNK, Homo sapiens, UniProt Q9C0B0, residues 30-357)
Sequence of UniProt Q9C0B0 (30-357, looked up): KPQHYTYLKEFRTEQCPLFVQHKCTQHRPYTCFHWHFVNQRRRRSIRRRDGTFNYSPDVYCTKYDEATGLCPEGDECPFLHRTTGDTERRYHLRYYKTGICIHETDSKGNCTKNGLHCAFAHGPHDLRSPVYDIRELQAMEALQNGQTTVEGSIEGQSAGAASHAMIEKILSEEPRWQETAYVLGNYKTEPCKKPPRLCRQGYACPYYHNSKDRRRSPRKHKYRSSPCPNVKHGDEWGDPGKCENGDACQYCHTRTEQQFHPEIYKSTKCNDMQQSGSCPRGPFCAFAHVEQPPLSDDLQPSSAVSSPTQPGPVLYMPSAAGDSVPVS
Technique: RNA Bind-n-Seq
Molecule type: RNA
Medium: in vitro
Concentration: 100 nM
Notes: RNA with constant flanks, vertebrate orthologous sites, ends assumed
Reference: input RNA pool
Direction: higher = stronger binding
All sequences stand within: GGGAGUUCUACAGUCCGACGAUC … CAACAGAGGAUUGAGCAUCA
Sequence	bound/input enrichment
GAAAUGGCCAGUGGAGGAAUCCCUGCCUUGGCCUUGCCUCCCCUCCUUGCCACCUGCUCCUAGGUAUUUUUUUUUUUAACCACCACGUGAUUCUGGUCGGCACUUCCUCCCCCGACCUGC	3.15 ratio
UUUUCUUUCUUUUGAUUUUCUUUAUUUUUUUCUUUCUUUCCUUCCUUCCUUUUUUUUUGGUAGAUGUUGUUACCCACGCCAUUUUAUGUCUCCUUCACUGAAGGGCUAGAGUUUUAACUU	2.49 ratio
AAUCAGUAGAAUUACAUAAUACUAAAGUUGCAGUUGAAAGAAUAUCCAAGUAUGUGUUGGUAGUUACUAAAAGAAUUAUAGCUGUUAUUGCCUUGUAUUUAUAGCCCUUGUUUCAGGUUU	0.948 ratio
UAGAAUUAUGAAGAAAAAAAAAUACCAAUAGAAUUUACGUUUAAUUCUCCUCCCCCCGCCUAUCGAAAAGAUUUUUCAAGACAGAUCAUUCAGUGUGUGAGUGUGCGUGCACAUGUUAUA	2.05 ratio
UUCACCACUCCUGGGUGCAUGAUUGAGGGUGAAGCAUCCACCAGCACUUCAAGGGGUCCAUAGUAUUUUUUUUUUUGCUGCCUCAAAGUCCCCAAAGCCUUCGAGCAGAAGUGGCAGUAG	1.8 ratio
CUCACUUCCAGGUUGGACCUAGUGGGAAAGUCAUAGGAAUUGACCACAUUAAAGAGCUAGUAGAUGACUCAAUAAAUAAUGUCAGAAAGGAUGAUCCAAUGCUUUUGUCUUCAGGGAGGG	0.801 ratio
UUUUAUUGAUCAGGUUUGUAAAUGUGUACCAACAAAAUCAGAGUUUAUUUAUAAACAGAAUAGAUUAUUUAAAGAGACGGUCUUUCCUCAUUGAUAUUGUGGUAUGCUUUAAUUCCAUUU	0.218 ratio
UUGGGAACAGCUCUCCAAACAGGAAUAGUAGUAAAAAAAUUAAGCAAAAUGAUAUGUGUAUAGAAAAAACAGAAGUUAAAUCAUGUAAAGUAAAUGCUGCCAACCUUCCUGGUCCUAAAG	1.26 ratio
CGUCCUUGUGUACUGUCCCCAACCAGGGCCAAGGGCCAGAUGUCUCUCUGAGGACUUGCAUUUAAAACAUUUUUUAAAUCGUUGUACAGGAAGAGAUGUGUCUGAGCAGCAUCUCGAAGU	0.512 ratio
GAAGAUGGUGGUUGUACAUUAUUCAUUUAAAGAAUAUAAAAAUUGGUUUUGUUUUGAAGCUAGGUAUUAAUUGGAAUAACUAUUAUACCCGAGAAUGGGGCAGCUGUGCCCUUUCUUUGA	0.549 ratio
UAUUUUCUUAUUUUAGGUAUCAUUGCCCAGUGCCCAAGAUCUUUUAUGUUCAGCUGACUGUGGGAAAUAAUGAAUUUUUUGGGGAAGGGAAGACUCGACAAGCCGCUAGACACAAUGCCG	1.64 ratio

Study 3
Target: RNA binding protein fox-1 homolog 2, RRM domain, GST-SBP tag (RBFOX2, Homo sapiens, UniProt O43251-10, residues 100-194)
Technique: RNA Bind-n-Seq
Molecule type: RNA
Medium: in vitro
Concentration: 365 nM
Notes: natural RNA segment, single round, ends assumed
Reference: no-protein control
Direction: higher = stronger binding
All sequences stand within: GGGAGUUCUACAGUCCGACGAUC … UGGAAUUCUCGGGUGCCAA
Target sequence (chain): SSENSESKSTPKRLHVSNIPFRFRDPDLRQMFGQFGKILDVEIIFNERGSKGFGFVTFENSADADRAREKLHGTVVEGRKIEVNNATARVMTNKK
Sequence	RBNS enrichment (R)
AUUUAAUGCACUGCCCAGAAAGAGCCAUGUGUAAGAGUUGUUCUCUGUUUGAGGAACUAACUACAUGGAAAAGACUUCUGACUUAAACCCAUGAAAUACUUCAUCUUGAG	0.331
AGUGGAGCACUGGCAUCUCGAGCUUGGGAAGGUCUUUAGAAUUAGGCUCUCUGGAGCAGGGCCUGUAGUGUUAACAAGUUCUCUGGGUGGUUCUAUUCUGAGCACCCCUG	0.702
GCUUCUUAUAAAUACCUCCAAAGUGCCACCUGUUUCAACAGAAACGCUCAGAUUGCUAGCUAGGCAAGCACUGGGCACUCCAGAGCCAGUGGCUCUGCCACCCUGCAGGC	0.376
UGGGACGUAUACAUUCUCCAUUCUUUUUGACAUUAUUUUGGCUAAUCUGGGUCCUCUGCAUUUCUGUAUAACUUACAAGGUCUGGUUGUCAGUUUUUGCAAAAAGGCCUG	0.844
GACAAAUCACCACCACCAGUGUUAAGUGCUUCUGGAUUCAUGGGUGAGUUCCCUGGGCAGCCCCCAGGAAGGCCUUCCAGAUCUGGCUCCAGGGUCACCACCUGUCACAG	0.162
GCAAGGAGCAAGGACUUGGGCUUCUCCACGCUUUGCUCCUGGCUUGUUUGACCUUGACUCAUUCCCCAUAUGUCUUUGAGGAGGCUCACAAAAUACUAAAGCUGGGAGGA	0.372
CUUCCGUGUUCCUGUCAGUCCUUCCUUCAAGAAGCCGGGGAACUCAGGCAGACUCAUCUCCGCAGAGCAUACCAGCCGUGGGGGACCGUUCGACUUGAUGAUGUGUGCAC	0.349
UGCAGCUUCCACGGAAUCCCUCCCUCACUGCCAGAGCAGCAUCUUCUCUGUGUACCACCUCUGCUGUCUCAGAUGCCCCCAGCAAAUAAACACUCUUCUCGUUGGUCAGA	1.85
GAUUUUGUUUUCUACCCUUCAAGGUAAACAUUAAAAAUAAGGUGGUACUUGUGUACUUGUACAUAAAACCAAAAUUAUAGUUGGGAAAAAAAUAAAUUUAUAUAUGAAAA	0.581
ACCCACAGAACACUGUGAGUGGUGAGCACCAAGAUGGGUUGCCAGCCUCAUUUGCUCUUUGAACGAACCAACAUUAGCCAGUGGAGACGACUGUCUGAGACAGUUUGCAC	0.447
AAAAGACAACUUCCUUUUUCUUCAGCUCCCACACCCCAUUUUUCUUAGCAGACUGCAGUCAAUCCACAUUCAAUAAAAAGUAUAUAAUGCCCAUUUUUAUAUGCACGUUU	0.956
GUGACCUCCACUAACCCCCACUUCCAUGCAUAUUGACGAGGGAUCUAGUCUAAGUAAGAAUGUCUUUUGCCUGCGCGUGGAGGCACAGUAGAAAUCUCAAGGCUUUACCC	0.781

Study 4
Target: Interferon regulatory factor 7, full length, phosphomimetic (IRF7, Homo sapiens, UniProt Q92985, residues 1-503, S471D/S472D/S475D/S476D/S477D/S483D/S484D/S487D)
Technique: protein-binding microarray
Molecule type: double-stranded DNA, one strand shown
Medium: in vitro
Concentration: 2200 nM top
Notes: 60-bp whole probe
Together with: salmon DNA 0.4 mg/ml
Reference: random background probes
Direction: higher = stronger binding
All sequences stand within: GCCTAGCAC … GTCTTGATTCGCTTGACGCTGCTG
Construct (chain): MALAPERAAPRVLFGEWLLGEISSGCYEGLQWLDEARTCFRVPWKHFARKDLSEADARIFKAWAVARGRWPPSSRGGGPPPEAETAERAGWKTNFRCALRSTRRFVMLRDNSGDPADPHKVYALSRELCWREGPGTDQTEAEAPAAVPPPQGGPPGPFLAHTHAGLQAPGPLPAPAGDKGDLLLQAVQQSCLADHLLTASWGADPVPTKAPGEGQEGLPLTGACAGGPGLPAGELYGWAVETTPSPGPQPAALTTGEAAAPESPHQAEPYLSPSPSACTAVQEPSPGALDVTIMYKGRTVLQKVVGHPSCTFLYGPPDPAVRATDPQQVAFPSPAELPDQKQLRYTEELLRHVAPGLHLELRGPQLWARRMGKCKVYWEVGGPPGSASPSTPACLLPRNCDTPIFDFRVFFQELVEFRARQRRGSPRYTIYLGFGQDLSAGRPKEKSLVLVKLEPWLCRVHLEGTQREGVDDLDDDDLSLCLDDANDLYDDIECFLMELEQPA
Sequence	fitted relative affinity
TTAGGTTTCGGACTGGGTAAGTGCTAG	3.45 z-score
TCAAATTTGGAAACCGAACTGTGCTAG	-0.251 z-score
GACGGACTGGGTTTCGAGACGTGCTAG	0.874 z-score
TTAGGACTGAACACTGGGTTAGTGCTA	-0.734 z-score
TCATCTTTATGCACTCTCACTGTGCTA	1.25 z-score
GACGATCTCAGTCTGGAGACGTGCTAG	-0.222 z-score
GCCGGTCTCGGTATCGGGACGTGCTAG	0.31 z-score
TCACCTTTCTGCCTCAGACTGTGCTAG	2.23 z-score
TAGAATGTCCTTTCTCCATGGGTGCTA	0.554 z-score
GACGATATCGGTATCGAGACGTGCTAG	0.382 z-score
GATTGGCTGACTTTGGAGATGTGCTAG	-0.0877 z-score
TCAGTGCTCCTTTTAATACTGTGCTAG	0.607 z-score
GACGGACTCGGTATCGGGACGTGCTAG	-0.0449 z-score
ACTCGTGACCCTCTCAAAGGGTGCTAG	0.117 z-score
ATGAAGTTCTTTTTTTCAAGGTGCTAG	0.288 z-score
TCAACTTTATGTAGGAAACTGTGCTAG	0.0857 z-score
GACGATTTCCGGACTGGAGACGTGCTA	0.952 z-score

Study 5
Target: Transcription factor SOX-2, HMG box (SOX2, Homo sapiens, UniProt P48431, residues 19-118)
Sequence of UniProt P48431 (19-118, looked up): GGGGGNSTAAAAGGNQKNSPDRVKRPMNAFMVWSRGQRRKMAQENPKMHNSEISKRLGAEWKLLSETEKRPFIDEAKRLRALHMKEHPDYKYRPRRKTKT
Technique: protein-binding microarray
Molecule type: double-stranded DNA, one strand shown
Medium: in vitro
Concentration: not given
Notes: k-mer, scored over probes, only values ≥0.25
Direction: higher = stronger binding
Sequence	E-score
ATTTACA	0.303
TGACAAA	0.286
CATTGTA	0.426
CATTGAA	0.364
CAATTGA	0.414
AGGACAA	0.269
TAATAGA	0.354
ATAACAA	0.417
GACAAAA	0.339
TCGTCAA	0.263
AATATCA	0.263
CCTATTA	0.311
CAACAAA	0.305
CACAAAA	0.264

Study 6
Target: ABI1, truncated, D143A, DHFR fusion (Arabidopsis thaliana)
Technique: DHFR PCA, deep sequencing
Medium: yeast
Notes: methotrexate growth selection, single substitutions
Together with: (+)-ABA 17 µM
Reference: wild-type fitted maximum
Direction: higher = stronger binding
Starting sequence: PYL1, truncated, DHFR fusion (Arabidopsis thaliana); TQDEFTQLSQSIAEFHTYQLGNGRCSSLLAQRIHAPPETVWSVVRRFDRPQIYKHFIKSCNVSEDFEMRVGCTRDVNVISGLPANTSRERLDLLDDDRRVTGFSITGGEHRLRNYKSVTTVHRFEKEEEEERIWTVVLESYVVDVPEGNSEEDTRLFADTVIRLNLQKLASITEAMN; partner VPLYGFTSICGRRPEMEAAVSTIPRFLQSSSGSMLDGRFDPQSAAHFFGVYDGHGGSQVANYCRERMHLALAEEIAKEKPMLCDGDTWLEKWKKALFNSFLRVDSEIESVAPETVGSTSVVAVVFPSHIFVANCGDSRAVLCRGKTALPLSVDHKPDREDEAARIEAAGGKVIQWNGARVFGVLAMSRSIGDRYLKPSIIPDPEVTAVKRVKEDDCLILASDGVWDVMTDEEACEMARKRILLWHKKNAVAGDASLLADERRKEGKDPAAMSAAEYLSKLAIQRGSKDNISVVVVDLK
Change	relative binding score [%]
I57C	20.8
M68F	74.5
S80H	20.1
L91T	-14.9
A13S	80.3
Y18D	28.1
N85F	67.2
T154L	8.78
N177G	99.6
R132F	82.5
V137P	0.855
S11P	87.4
A175I	74.8
E174C	58
D75P	-42.8

For quick reference, copied from above (study 5):
Sequence	E-score
AGGACAA	0.269
TAATAGA	0.354
ATAACAA	0.417
GACAAAA	0.339
TCGTCAA	0.263
AATATCA	0.263
